Assay results of several laboratories.
Numbered parts are unrelated; each lists some results of a single study.

Series 1 — species: human; medium: microsomes or S9; tested at: 2 µM; time: 0.5 h; quantity: remaining compound
CCc1n[nH]c(=O)c(-c2nc(C3CCCC3)cs2)c1CC: 0.999%
CNC(=O)c1cc(Cl)cc(C)c1NC(=O)c1cc(Br)nn1-c1c(F)c(F)cc(F)c1F: 83%
CCOC(=O)Cn1ccc2cc(N3C(=O)N4CCCC4(C)C3=O)ccc21 (centres unmarked): 12.4%
COc1ccc(/C=C/c2cc(OC)cc3oc(-c4ccc(OC)cc4)c(-c4cc(OC)cc(OC)c4)c23)cc1: 80%
COc1cccc2c(C(C(=O)O)N3CCN(C4=Nc5ccccc5Oc5ccccc54)CC3)c[nH]c12 (centres unmarked): 87.8%
Cc1cc(C(=O)O)nn1-c1ccc(S(C)(=O)=O)cc1: 63.8%
COC(=O)[C@@H]1C[C@H](C(=O)OC)CN(c2ccnc(N3C[C@H](C(=O)OC)C[C@H](C(=O)OC)C3)n2)C1: 52.2%
Cc1nn(C)cc1-c1c2c(=O)[nH]n(C(C)C)c2nc2[nH]c(=O)n(C)c12: > 100%
CCc1[nH]c(C(=O)Nc2cc(S(=O)(=O)N3CCCC3)ccc2O)c(C)c1C(=O)OC: 57.7%
O=C(Nc1ccccc1Cl)NC1(C(=O)N2CCC(O)CC2)CCCCC1: > 99%

Series 2 — cell line: mouse MPNST tumor cells; method: high-content nuclear imaging; measured: cell number; tested at: 10 µM; time: 12 h; setting: mean of 2 replicates; reference: plate mean; direction: higher = more cells; quantity: nuclei count
CC[C@@H]([C@H](C)O)n1ncn(-c2ccc(N3CCN(c4ccc(OC[C@@H]5CO[C@@](Cn6cncn6)(c6ccc(F)cc6F)C5)cc4)CC3)cc2)c1=O: -4.06 z-score
NS(=O)(=O)c1ccc(N2CCN(CC[C@@H]3OCCc4ccccc43)CC2)cc1: 4.37 z-score
Cc1c(C(N)=O)nn(-c2ccc(Cl)cc2Cl)c1-c1ccc(Cl)cc1: 2.37 z-score
CCN(CC)C(=S)SSC(=S)N(CC)CC: -5.3 z-score
CO[C@H]1/C=C/O[C@@]2(C)Oc3c(C)c(O)c4c(O)c(c5c(nc6cc(C)ccn65)c4c3C2=O)NC(=O)/C(C)=C\C=C\[C@H](C)[C@H](O)[C@@H](C)[C@@H](O)[C@@H](C)[C@H](OC(C)=O)[C@@H]1C: 0.153 z-score
CCCCOCCOc1nc(-c2ccc(C(=O)O)c(F)c2)sc1C: -0.26 z-score
CNC(=O)c1ccccc1Sc1ccc2c(/C=C/c3ccccn3)n[nH]c2c1: -2.49 z-score
CC(=O)[C@H]1CC[C@H]2[C@@H]3CC=C4C[C@@H](O)CC[C@]4(C)[C@H]3CC[C@]12C: 2.73 z-score

Series 3 — method: phase 2a trial; species: idiopathic pulmonary fibrosis patients; quantity: patients with ALT increased
SMILES: CC(C)n1cnc(-c2ccc(F)cc2)c1-c1ncc(C(=O)Nc2ccc(N3CCN(C)CC3)cc2)[nH]1
dose not given, grade 1, arms pooled: 5%
60 mg once daily, adverse event grade 4: 0%
60 mg once daily, adverse event grade 2: 2%
dose not given, adverse event grade 5, all dose arms pooled: 0%
60 mg once daily, adverse event grade 1: 4%
30 mg once daily, adverse event grade 4: 0%

Other studies, line by line — target: GABAA receptor; observed: binding
c1ccc(C2CCN(c3cnc4c(N5CCOCC5)nccn34)CC2)cc1 — Ki: 1820 nM
COCc1nc2cnc3cc(-c4c(C)noc4C)c(OC[C@H]4CCNC4)cc3c2n1[C@H](C)c1ccccc1 — Ki: 1600 nM

Excerpt of the above (series 3):
dose not given, adverse event grade 5, all dose arms pooled: 0%
60 mg once daily, adverse event grade 1: 4%
30 mg once daily, adverse event grade 4: 0%
